# Measured values of several laboratories.
# Each numbered part is a random draw from the data of one study; scales do not carry over between parts.
# Sequence of UniProt Q9Y4K4 (whole entry, looked up): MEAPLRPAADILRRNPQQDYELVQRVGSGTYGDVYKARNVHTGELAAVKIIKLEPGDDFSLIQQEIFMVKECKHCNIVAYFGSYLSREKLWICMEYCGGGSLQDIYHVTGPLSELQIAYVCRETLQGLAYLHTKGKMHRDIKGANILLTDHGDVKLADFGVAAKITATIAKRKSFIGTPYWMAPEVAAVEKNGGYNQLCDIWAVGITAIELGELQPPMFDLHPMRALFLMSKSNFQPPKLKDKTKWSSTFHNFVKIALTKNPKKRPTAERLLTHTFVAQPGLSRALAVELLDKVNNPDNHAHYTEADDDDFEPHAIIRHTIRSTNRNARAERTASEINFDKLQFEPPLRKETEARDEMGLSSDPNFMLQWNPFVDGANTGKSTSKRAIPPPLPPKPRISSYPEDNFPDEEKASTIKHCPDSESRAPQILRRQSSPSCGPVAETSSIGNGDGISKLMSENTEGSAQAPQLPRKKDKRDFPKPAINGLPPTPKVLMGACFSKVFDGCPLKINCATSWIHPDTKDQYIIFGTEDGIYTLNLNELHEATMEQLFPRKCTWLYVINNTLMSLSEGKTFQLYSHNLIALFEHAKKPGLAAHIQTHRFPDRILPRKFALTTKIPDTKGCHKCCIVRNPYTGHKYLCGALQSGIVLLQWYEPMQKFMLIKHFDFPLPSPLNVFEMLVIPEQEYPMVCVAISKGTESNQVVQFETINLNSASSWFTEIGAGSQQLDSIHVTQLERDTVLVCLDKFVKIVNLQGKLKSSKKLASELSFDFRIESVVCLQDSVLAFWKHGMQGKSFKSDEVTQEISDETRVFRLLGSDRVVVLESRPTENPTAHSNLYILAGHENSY
# Sequence of UniProt P21860 (whole entry, looked up): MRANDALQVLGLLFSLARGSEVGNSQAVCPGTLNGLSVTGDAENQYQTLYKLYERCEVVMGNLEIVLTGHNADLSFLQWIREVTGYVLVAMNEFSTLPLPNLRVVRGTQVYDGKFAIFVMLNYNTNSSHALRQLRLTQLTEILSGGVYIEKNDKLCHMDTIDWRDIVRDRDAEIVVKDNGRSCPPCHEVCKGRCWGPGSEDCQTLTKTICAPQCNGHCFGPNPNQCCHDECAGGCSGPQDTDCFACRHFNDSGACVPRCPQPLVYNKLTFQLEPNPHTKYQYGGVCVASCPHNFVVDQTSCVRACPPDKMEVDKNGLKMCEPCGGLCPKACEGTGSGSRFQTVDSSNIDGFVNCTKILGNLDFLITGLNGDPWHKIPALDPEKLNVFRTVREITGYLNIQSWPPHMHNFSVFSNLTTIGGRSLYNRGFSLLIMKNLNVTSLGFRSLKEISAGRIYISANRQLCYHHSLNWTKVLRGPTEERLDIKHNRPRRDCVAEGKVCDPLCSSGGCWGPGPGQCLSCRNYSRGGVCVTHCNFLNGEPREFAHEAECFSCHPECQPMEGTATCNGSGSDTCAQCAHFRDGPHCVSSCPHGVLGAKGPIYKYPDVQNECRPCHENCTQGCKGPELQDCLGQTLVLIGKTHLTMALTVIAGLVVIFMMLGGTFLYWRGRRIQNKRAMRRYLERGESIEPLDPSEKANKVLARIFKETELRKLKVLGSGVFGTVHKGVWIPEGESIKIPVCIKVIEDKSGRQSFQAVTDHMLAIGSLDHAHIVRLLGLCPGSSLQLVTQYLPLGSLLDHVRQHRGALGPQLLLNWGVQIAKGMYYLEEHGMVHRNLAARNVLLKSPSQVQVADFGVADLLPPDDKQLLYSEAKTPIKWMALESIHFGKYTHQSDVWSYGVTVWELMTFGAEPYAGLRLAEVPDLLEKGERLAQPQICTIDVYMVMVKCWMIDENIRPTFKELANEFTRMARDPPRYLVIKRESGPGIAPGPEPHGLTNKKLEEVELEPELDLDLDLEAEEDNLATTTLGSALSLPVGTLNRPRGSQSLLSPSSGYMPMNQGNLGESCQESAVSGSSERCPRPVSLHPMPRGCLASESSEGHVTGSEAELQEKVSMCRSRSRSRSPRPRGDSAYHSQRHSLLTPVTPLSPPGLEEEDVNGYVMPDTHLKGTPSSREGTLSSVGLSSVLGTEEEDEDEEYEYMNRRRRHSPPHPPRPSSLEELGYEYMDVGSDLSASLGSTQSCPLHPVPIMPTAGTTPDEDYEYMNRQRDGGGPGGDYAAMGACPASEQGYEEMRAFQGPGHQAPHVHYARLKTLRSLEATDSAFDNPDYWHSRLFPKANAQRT
# Sequence of UniProt Q15349 (whole entry, looked up): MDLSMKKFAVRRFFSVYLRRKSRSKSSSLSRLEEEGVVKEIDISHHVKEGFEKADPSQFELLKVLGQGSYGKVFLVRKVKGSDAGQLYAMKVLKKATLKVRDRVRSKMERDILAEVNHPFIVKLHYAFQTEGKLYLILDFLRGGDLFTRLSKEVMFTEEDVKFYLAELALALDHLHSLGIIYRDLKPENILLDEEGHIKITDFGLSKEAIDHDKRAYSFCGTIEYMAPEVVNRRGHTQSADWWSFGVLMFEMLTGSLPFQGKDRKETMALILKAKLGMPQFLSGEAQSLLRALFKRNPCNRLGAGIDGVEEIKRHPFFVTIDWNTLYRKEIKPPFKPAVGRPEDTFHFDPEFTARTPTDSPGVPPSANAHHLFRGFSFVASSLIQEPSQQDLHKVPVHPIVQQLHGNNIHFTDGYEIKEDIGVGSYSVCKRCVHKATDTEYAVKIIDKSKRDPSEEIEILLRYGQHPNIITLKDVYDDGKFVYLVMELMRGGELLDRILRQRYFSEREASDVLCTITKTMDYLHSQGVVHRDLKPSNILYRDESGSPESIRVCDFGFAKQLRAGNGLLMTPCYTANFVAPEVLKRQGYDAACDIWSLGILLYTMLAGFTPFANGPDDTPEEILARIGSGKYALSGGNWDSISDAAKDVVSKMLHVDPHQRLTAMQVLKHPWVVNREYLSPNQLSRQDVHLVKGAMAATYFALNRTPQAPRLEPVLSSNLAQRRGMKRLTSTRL
# Sequence of UniProt P54756 (whole entry, looked up): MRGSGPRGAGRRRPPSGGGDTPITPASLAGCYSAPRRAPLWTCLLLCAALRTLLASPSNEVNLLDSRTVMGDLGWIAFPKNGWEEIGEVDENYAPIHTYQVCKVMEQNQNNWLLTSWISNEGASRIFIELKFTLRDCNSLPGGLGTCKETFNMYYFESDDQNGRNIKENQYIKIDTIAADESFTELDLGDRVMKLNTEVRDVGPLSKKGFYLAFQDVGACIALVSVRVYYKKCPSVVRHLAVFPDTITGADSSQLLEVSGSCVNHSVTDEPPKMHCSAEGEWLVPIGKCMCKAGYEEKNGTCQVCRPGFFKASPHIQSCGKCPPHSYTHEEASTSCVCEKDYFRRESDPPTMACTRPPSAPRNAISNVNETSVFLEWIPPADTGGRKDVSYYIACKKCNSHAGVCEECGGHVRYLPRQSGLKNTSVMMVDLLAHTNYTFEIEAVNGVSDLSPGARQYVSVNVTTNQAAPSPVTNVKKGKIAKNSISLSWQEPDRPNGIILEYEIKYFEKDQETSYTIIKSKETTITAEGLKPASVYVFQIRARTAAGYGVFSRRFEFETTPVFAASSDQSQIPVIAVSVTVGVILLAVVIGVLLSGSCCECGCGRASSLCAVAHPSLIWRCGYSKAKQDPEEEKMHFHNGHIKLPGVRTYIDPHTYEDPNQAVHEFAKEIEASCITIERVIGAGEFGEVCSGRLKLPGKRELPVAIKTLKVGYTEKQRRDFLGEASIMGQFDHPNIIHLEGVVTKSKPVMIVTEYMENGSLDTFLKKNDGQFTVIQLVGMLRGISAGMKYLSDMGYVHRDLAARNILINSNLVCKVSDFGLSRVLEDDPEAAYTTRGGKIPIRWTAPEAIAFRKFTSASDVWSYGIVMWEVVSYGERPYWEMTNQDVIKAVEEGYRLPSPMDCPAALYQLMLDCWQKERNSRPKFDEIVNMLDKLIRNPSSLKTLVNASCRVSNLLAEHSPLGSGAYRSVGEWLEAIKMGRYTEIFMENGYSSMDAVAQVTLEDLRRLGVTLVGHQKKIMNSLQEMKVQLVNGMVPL

# Series 1 — Structure (SMILES): CSc1cccnc1N1CCN(Cc2nc3ccccc3[nH]2)CC1; read-out: cell-free assay; technique: competition with immobilised ligand; concentration: 1 µM
target,remaining binding [%]
"Homeodomain-interacting protein kinase 1 (HIPK1, Homo sapiens, UniProt Q86Z02)",78
"Hepatocyte growth factor receptor (MET, Homo sapiens, UniProt P08581)",100
"Citron Rho-interacting kinase (CIT, Homo sapiens, UniProt O14578)",100
"Ribosomal protein S6 kinase alpha-3, N-terminal kinase domain (RPS6KA3, Homo sapiens, UniProt P51812)",83
"Activated CDC42 kinase 1 (TNK2, Homo sapiens, UniProt Q07912)",100
"Uncharacterized serine/threonine-protein kinase SBK3 (SBK3, Homo sapiens, UniProt P0C264)",100
"Mast/stem cell growth factor receptor Kit (KIT, Homo sapiens, UniProt P10721, T670I/V559D)",100
"Phosphatidylinositol 4,5-bisphosphate 3-kinase catalytic subunit alpha isoform (PIK3CA, Homo sapiens, UniProt P42336, H1047Y)",100
"Dual specificity mitogen-activated protein kinase kinase 2 (MAP2K2, Homo sapiens, UniProt P36507)",70
"Ephrin type-A receptor 5 (EPHA5, Homo sapiens, UniProt P54756)",100
"Serine/threonine-protein kinase Sgk3 (SGK3, Homo sapiens, UniProt Q96BR1)",95
"Dual specificity protein kinase CLK4 (CLK4, Homo sapiens, UniProt Q9HAZ1)",100
"Ribosomal protein S6 kinase alpha-2, C-terminal kinase domain (RPS6KA2, Homo sapiens, UniProt Q15349)",100
"Tyrosine-protein kinase ABL1, non-phosphorylated (ABL1, Homo sapiens, UniProt P00519, H396P)",75
"Tyrosine-protein kinase ABL1, non-phosphorylated (ABL1, Homo sapiens, UniProt P00519)",70
"Tyrosine-protein kinase ABL1, phosphorylated (ABL1, Homo sapiens, UniProt P00519, M351T)",94
"Mitogen-activated protein kinase kinase kinase 11 (MAP3K11, Homo sapiens, UniProt Q16584)",100
"Receptor tyrosine-protein kinase erbB-3 (ERBB3, Homo sapiens, UniProt P21860)",90
"Mitogen-activated protein kinase kinase kinase kinase 5 (MAP4K5, Homo sapiens, UniProt Q9Y4K4)",100

# Series 2 — action: antagonist
# Target: Beta-1 adrenergic receptor (ADRB1, Homo sapiens, UniProt P08588)
# Sequence of UniProt P08588 (whole entry, looked up): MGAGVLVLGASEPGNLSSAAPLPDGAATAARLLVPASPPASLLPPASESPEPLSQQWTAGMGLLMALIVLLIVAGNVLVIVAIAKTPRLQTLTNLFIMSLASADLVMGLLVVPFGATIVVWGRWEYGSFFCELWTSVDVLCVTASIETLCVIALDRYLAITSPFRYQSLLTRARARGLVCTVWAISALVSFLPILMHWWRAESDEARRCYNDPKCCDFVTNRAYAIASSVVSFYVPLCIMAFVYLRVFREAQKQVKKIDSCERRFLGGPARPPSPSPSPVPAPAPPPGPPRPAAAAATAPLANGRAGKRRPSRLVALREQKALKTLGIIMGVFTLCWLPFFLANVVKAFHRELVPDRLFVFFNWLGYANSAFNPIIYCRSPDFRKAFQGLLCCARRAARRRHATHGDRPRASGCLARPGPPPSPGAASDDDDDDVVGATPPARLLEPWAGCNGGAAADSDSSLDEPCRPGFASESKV
SMILES,IC50
O=c1oc2ccccc2cc1-c1nc2c(s1)CCc1ccccc1-2,≥ 100 µM
O=C1COc2ccc(N3CCOCC3)nc2CN1Cc1ccc(F)cc1,≥ 100 µM
COc1ccccc1N1CCN(C(=O)C[C@@H]2O[C@H](CNC(=O)c3ccccc3)[C@@H](O)[C@H]2O)CC1,≥ 100 µM
COc1ccccc1NC(=O)Nc1cccc(-c2ccc(N3CCOCC3)nn2)c1,≥ 100 µM
O=C(Nc1ccc([C@@H](O)[C@H]2COCC(=O)N2CCCc2ccccc2)cc1)C1CC1,≥ 100 µM
O=C1COC[C@H]([C@H](O)c2ccc(NC(=O)c3ccccc3)cc2)N1,≥ 100 µM
Cc1cc(=O)oc2cc(CN(C)CC(C)N3CCOCC3)ccc12 (stereo not drawn),≥ 100 µM
N#CC(c1ccccc1)c1cnn(-c2ccccc2)c(=O)c1Cl (stereo not drawn),≥ 100 µM
CCN1C(=O)COC[C@@H]1[C@H](O)c1ccc(NC(=O)c2cccs2)cc1,≥ 100 µM
COc1ccccc1N1CCN(CC2CCOCC2)CC1,≥ 100 µM
O=C1CCn2nnc(CNc3cccc(C(F)(F)F)c3)c2CN1Cc1ccccc1,≥ 100 µM
CN(C)c1cccc(C(=O)N2CC(COc3ccccc3)C3(C2)CN(C(=O)c2cn[nH]c2)C3)c1 (stereo not drawn),≥ 100 µM
C[C@H](O)c1onc(-c2ccccc2)c1C(=O)N1CCOCC1,≥ 100 µM
Clc1cccc(-c2c[nH]c([C@@H]3COCCN3Cc3cnc4ccccc4c3)n2)c1,≥ 100 µM
COc1ccccc1N1CCN([C@H]2[C@@H]3OC[C@@H](O3)[C@@H](NCc3ccccc3O)[C@@H]2O)CC1,≥ 100 µM
CC(O)CNCc1c(Cl)cccc1Cl (stereo not drawn),≥ 100 µM
c1ccc(-n2ncc3c(N4CCNc5ccccc5C4)ncnc32)cc1,≥ 100 µM
Cc1ccsc1-c1n[nH]c2ncc(-c3ccccc3F)nc12,≥ 100 µM
CC(C)n1cc(-c2cc(C(=O)N3CCC(C)(C)C3)c3ccc(F)cc3n2)cn1,≥ 100 µM
COc1ccccc1N1CCN(CCC(=O)NC2CCCc3ccccc32)CC1 (stereo not drawn),≥ 100 µM

# Series 3 — read-out: acetyl-histone H4 peptide binding; technique: AlphaScreen displacement; concentration: 50 µM
# Target: Bromodomain-containing protein 4, BD1 (BRD4, Homo sapiens, UniProt O60885)
Compound,inhibition
Cl.Cl.Cl.Cn1cc(-c2[nH]c3cc(NC(=O)[C@H](N)C4CCCCC4)cc4c3c2C=NNC4=O)cn1,76%
COc1cc(C=C2SC(=O)NC2=O)cc(OC)c1O,-1.65%
Nc1ccc(-c2c3ccc(=O)cc-3oc3cc(O)ccc23)cc1C(=O)O,8.2%
CCC(Sc1ccc2nnc(-c3ccc(OC)c(OC)c3)n2n1)C(=O)O (stereo not drawn),7.15%
COc1ccc(-c2cc3c(C)nc(N)nc3n([C@H]3CC[C@H](OCCO)CC3)c2=O)cn1.O.O,-19.8%
CCN(CC)CCNc1ccc(NCCN(CC)CC)c2c1C(=O)c1ccccc1C2=O,64.5%
N#CC(=Cc1ccc[nH]1)c1nc2ccc(C(F)(F)F)cc2s1,29.1%
COc1ccc(Nc2ncc(F)c(Nc3ccc(OC)c(Cl)c3)n2)cc1Cl,24.7%
COc1ccc(-c2nnc3ccc(SCC(=O)Nc4ccccc4F)nn23)cc1OC,3.6%
COC(=O)c1ccc(CSc2nc3c([nH]c4ccccc43)c(=O)n2C)o1,2.55%
Cc1ccc(-c2csc3nc[nH]c(=O)c23)cc1C,19.9%

# Series 4 — read-out: enzyme activity; action: inhibitor; concentration: 0.5 µM; reference: control
# Target: Serine/threonine-protein kinase 25 (STK25, Homo sapiens, UniProt O00506)
# Sequence of UniProt O00506 (whole entry, looked up): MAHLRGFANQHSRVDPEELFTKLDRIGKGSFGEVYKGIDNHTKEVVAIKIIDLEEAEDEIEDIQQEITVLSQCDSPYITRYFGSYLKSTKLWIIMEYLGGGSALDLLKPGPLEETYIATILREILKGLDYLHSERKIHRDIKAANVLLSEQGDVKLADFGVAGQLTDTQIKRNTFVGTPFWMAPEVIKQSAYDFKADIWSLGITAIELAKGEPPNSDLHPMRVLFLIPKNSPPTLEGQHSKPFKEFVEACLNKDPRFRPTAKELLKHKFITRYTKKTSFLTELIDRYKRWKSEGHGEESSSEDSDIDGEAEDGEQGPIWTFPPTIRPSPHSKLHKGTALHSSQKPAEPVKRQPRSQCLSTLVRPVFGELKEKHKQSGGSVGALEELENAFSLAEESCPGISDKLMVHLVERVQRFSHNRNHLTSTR
SMILES,remaining activity
COc1ccc(S(=O)(=O)N(CCO)c2ccccc2CN(C)CC=Cc2ccc(Cl)cc2)cc1,99.6%
CCCC(=O)Oc1ccc2[nH]c(C(=O)c3cc4ccccc4[nH]3)cc2c1,94.5%
CC(=O)c1ccc(N2CCOCC2)cc1O,90.9%
COc1cc(Nc2c(C#N)cnc3cc(OCCCN4CCN(C)CC4)c(OC)cc23)c(Cl)cc1Cl,10.1%
Nc1nccc(-c2c(-c3ccc(F)cc3)ncn2C2CCNCC2)n1,99.8%
NC(=O)c1ccc(N(C(N)=O)c2c(F)cccc2F)nc1-c1ccc(F)cc1F,97.1%
CSc1nc(-c2ccnc(N[C@@H](C)c3ccccc3)c2)c(-c2ccc(F)cc2)[nH]1 (racemic),118%
Nc1ncnc2c1cnn2-c1ccccc1,93.2%
Cc1cncc2cccc(S(=O)(=O)N3CCCN(C(=O)CN)C[C@@H]3C)c12,119%
N#CC(=C(N)Sc1ccc(N)cc1)c1ccccc1C(F)(F)F,114%
Fc1ccc(-c2nc3n(c2-c2ccncc2)CCS3)cc1,104%
CCc1[nH]c(-c2ccc(OC)cc2)nc1-c1ccncc1,116%
Nc1nc(Nc2ccc(S(N)(=O)=O)cc2)nn1C(=O)c1c(F)cccc1F,82.3%
CC#CC(=O)Nc1cc2c(Nc3ccc(F)c(Cl)c3)ncnc2cn1,97.1%
CC[n+]1c(/C=C/N(C)c2ccccc2)n(-c2ccccc2)c2ccc(-c3nc4ccccc4s3)cc21,96.5%
Oc1ccc(Nc2nc(-c3ccc(Cl)cc3)cs2)cc1,113%
O=C1Cc2c([nH]c3ccc([N+](=O)[O-])cc23)-c2ccccc2N1,83.6%
O=C1NC(=O)C(c2c[nH]c3ccccc23)=C1c1c[nH]c2ccccc12,78.3%
Cc1cc(Nc2nc(-c3ccccc3)nc3ccccc23)n[nH]1,86.7%
CC(C)(C)n1nc(Cc2cccc3ccccc23)c2c(N)ncnc21,93%
O=S(=O)(NCCNC/C=C/c1ccc(Br)cc1)c1cccc2cnccc12,104%
Cc1ccc(NC2=CC(=O)c3sc(C)nc3C2=O)cc1,93.4%

# A few entries again (series 4):
SMILES,remaining activity
Cc1cncc2cccc(S(=O)(=O)N3CCCN(C(=O)CN)C[C@@H]3C)c12,119%
O=C1NC(=O)C(c2c[nH]c3ccccc23)=C1c1c[nH]c2ccccc12,78.3%
COc1cc(Nc2c(C#N)cnc3cc(OCCCN4CCN(C)CC4)c(OC)cc23)c(Cl)cc1Cl,10.1%
O=S(=O)(NCCNC/C=C/c1ccc(Br)cc1)c1cccc2cnccc12,104%
N#CC(=C(N)Sc1ccc(N)cc1)c1ccccc1C(F)(F)F,114%
COc1ccc(S(=O)(=O)N(CCO)c2ccccc2CN(C)CC=Cc2ccc(Cl)cc2)cc1,99.6%
NC(=O)c1ccc(N(C(N)=O)c2c(F)cccc2F)nc1-c1ccc(F)cc1F,97.1%
